Results of several laboratories.
Protocols differ between the studies behind these lines. ± marks the error that the study gave.
Organism: Trypanosoma brucei

SMILES	test	test system	conditions	EC50 [nM]
CCn1nc(-c2cc(Br)cs2)nc2c(=O)n(C)c(=O)nc1-2	parasite growth, resazurin		73 h	3400
COc1cc2c(cc1-c1c(C)noc1C)ncc1[nH]c(=O)n([C@H](C)c3ccccn3)c12	growth rate inhibition, flow cytometry	bloodstream form	2 days	31700 ± 7500
CN(C)CCCOc1cc(F)c(-c2c(Cl)nc3ncnn3c2NCC2(C)N=N2)c(F)c1	parasite growth, SYBR Green		72 h	55.4
CC(=O)OC[C@H]1O[C@@H]([Se]c2ccc([N+](=O)[O-])cc2[N+](=O)[O-])[C@H](OC(C)=O)[C@@H](OC(C)=O)[C@@H]1OC(C)=O	parasite growth		24 h	390
C[C@@H](Nc1c(-c2c(F)cc(C#CCCN(C)C)cc2F)c(Cl)nc2ncnn12)C(C)(C)C	parasite growth, SYBR Green		72 h	238
CCOc1ccccc1-c1nc(CC(=O)NCc2cn3ccccc3n2)cs1	cell viability, flow cytometry, PI	bloodstream form	24 h	> 25000
C[C@@H](Nc1c(-c2c(F)cc(OCCCN(C)C)cc2F)c(Cl)nc2ncnn12)C1CC1	parasite growth, SYBR Green		72 h	87.8
Cc1ccc(-c2cc(C(=O)Nc3cccnc3)c3cc(Br)ccc3n2)o1	parasite growth, resazurin		73 h	6900
COC(=O)c1[nH]c(C(=O)OC)c2c1-c1c[nH]c3ccc(Cl)c(c13)C21C=Nc2ccc(Cl)cc21 (racemic)	parasite growth, ATP luminescence		48 h	7500
CS[Se][C@@H]1O[C@H](COC(C)=O)[C@@H](OC(C)=O)[C@H](OC(C)=O)[C@H]1NC(C)=O	parasite growth		24 h	370
CC1CCN(Cc2ccc(CNC(=O)Cc3cc(Cl)c4c(c3)OCCO4)cc2)CC1	cell viability, flow cytometry, PI	bloodstream form	24 h	> 25000
CNCCCOc1cc(F)c(-c2c(Cl)nc3ncnn3c2N[C@@H](C)C(F)(F)F)c(F)c1	parasite growth, SYBR Green		72 h	81.3
CC(=O)OC[C@H]1O[C@@H]([Se][Se][C@@H]2O[C@H](COC(C)=O)[C@H](OC(C)=O)[C@H](OC(C)=O)[C@H]2OC(C)=O)[C@H](OC(C)=O)[C@@H](OC(C)=O)[C@H]1OC(C)=O	parasite growth, flow cytometry		24 h, blood stage	1490
Clc1ccc(CNCCCNc2nc3ccccc3[nH]2)cc1	parasite growth			960
CC(=O)N[C@@H]1[C@@H](OC(C)=O)[C@H](OC(C)=O)[C@@H](COC(C)=O)O[C@H]1[Se]Cc1ccc([N+](=O)[O-])cc1	parasite growth		24 h	7700
CC(Nc1c(-c2c(F)cc(OCCCN(C)C)cc2F)c(Cl)nc2ncnn12)C(C)(C)C (centres unmarked)	parasite growth, SYBR Green		72 h	38.9
Clc1cc(Cl)cc(CNCCCNc2nc3ccccc3[nH]2)c1	parasite growth			16
COc1ccc(C(C)=O)cc1CC(=O)N1CCC(C(=O)Nc2ccc(Br)cn2)CC1	cell viability, flow cytometry, PI	bloodstream form	24 h	> 25000
COc1ccc(Nc2nc(N)c(C(C)=O)s2)cc1	cell proliferation, resazurin	bloodstream form	73 h	13000
CC(=O)N[C@@H]1[C@@H](OC(C)=O)[C@H](OC(C)=O)[C@@H](COC(C)=O)O[C@H]1[Se][Se][C@@H]1O[C@H](COC(C)=O)[C@@H](OC(C)=O)[C@H](OC(C)=O)[C@H]1NC(C)=O	parasite growth, flow cytometry		24 h, blood stage	~5000
COC(=O)c1[nH]c(C(=O)OC)c2c1-c1c[nH]c3ccc(Cl)c(c13)C21CNc2ccc(Cl)cc21 (racemic)	parasite growth, ATP luminescence		48 h	12000
CCOc1cccc(Nc2nc(N)c(C(=O)c3ccc(OC)cc3)s2)c1	cell proliferation, resazurin	bloodstream form	73 h	4100
C[C@@H](Nc1c(-c2c(F)cc(C#CCCO)cc2F)c(Cl)nc2ncnn12)C(C)(C)C	parasite growth, SYBR Green		72 h	158
COc1ccc(Nc2nc(N)c(C(=O)c3ccc(OC)cc3)s2)cc1	cell proliferation, resazurin	bloodstream form	73 h	700
C[C@@H](Nc1c(-c2c(F)cc(OCCCO)cc2F)c(Cl)nc2ncnn12)C(C)(C)C	parasite growth, SYBR Green		72 h	83.1
CC(=O)OC[C@H]1O[C@@H]([Se][C@@H]2O[C@H](COC(C)=O)[C@@H](OC(C)=O)[C@H](OC(C)=O)[C@H]2OC(C)=O)[C@H](OC(C)=O)[C@@H](OC(C)=O)[C@@H]1OC(C)=O	parasite growth		24 h	3600
COC(=O)c1[nH]c(C(=O)OC)c2c1-c1c[nH]c3cccc(c13)C21CN(C)c2ccccc21 (racemic)	parasite growth, ATP luminescence		48 h	7100
CN(C)CCCOc1cc(F)c(-c2c(Cl)nc3ncnn3c2NCC(C)(C)C)c(F)c1	parasite growth, SYBR Green		72 h	106
Cc1cc(NC(=O)C2CCN(C(=O)Cc3c(C)[nH]c4ccccc34)CC2)no1	cell viability, flow cytometry, PI	bloodstream form	24 h	> 25000

Repeated from above:
SMILES	test	test system	conditions	EC50 [nM]
Clc1cc(Cl)cc(CNCCCNc2nc3ccccc3[nH]2)c1	parasite growth			16
COc1ccc(C(C)=O)cc1CC(=O)N1CCC(C(=O)Nc2ccc(Br)cn2)CC1	cell viability, flow cytometry, PI	bloodstream form	24 h	> 25000
COc1ccc(Nc2nc(N)c(C(C)=O)s2)cc1	cell proliferation, resazurin	bloodstream form	73 h	13000
